Results pooled from the literature.
Parts stem from different laboratories: compare values within a part only.

Set 1 — method: RNA Bind-n-Seq; molecule type: RNA; matrix: in vitro; concentration: not given; reference: input RNA pool; reading: higher = stronger binding; quantity: bound/input enrichment
Target: RING finger protein unkempt homolog, zinc fingers 1-6, GST-SBP tag (UNK, Homo sapiens, UniProt Q9C0B0, residues 30-357)
UniProt Q9C0B0, sequence (30-357, looked up): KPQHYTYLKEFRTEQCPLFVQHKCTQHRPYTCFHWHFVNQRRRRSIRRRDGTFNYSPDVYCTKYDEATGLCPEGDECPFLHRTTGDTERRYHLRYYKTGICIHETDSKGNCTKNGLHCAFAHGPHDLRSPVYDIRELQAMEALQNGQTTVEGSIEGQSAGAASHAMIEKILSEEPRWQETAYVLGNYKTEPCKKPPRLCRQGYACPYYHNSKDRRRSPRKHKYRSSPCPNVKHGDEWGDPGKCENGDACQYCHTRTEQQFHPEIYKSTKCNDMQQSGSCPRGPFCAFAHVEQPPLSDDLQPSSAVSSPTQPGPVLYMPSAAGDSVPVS
Notes: RNA with constant flanks, human and mouse sites, ends assumed
Constant ends, left off below: GGGAGUUCUACAGUCCGACGAUC … CAACAGAGGAUUGAGCAUCA
GCUAGUUCUAGUUAGUCUAUAUUGUUUGUUUUUUCAGUCUUCUUUUUCUAGCAUGCUUUACAUAGGAGAGAAUAAAGGGCUAUUUAAUAAGCAAUCCGGAUCUCAGAGAACAUAGUAAUA: 2.48 ratio
AUUUAGAGGAAUGUACUUUACAAGAUAGAUUGUAUAAGAAGCCAAAUAAUGAAAGCCUAGAAAAAACUAAUUUAUACUUAUCUGAAGGUUACAAAUUAGACUUUUAAAUUUUCUUUGUAG: 59.4 ratio
UACCUGCUGCUGCAGACCUACGUGCUCCGCCUAGAAGCUAUCAUGAACAGUAUCUUGCUCUUCUUUUGUGGCUCAGAGCUGCUGCUUGAGAUGCUCACGCUGGCCACCUUCUCCAGCAUG: 1.56 ratio
UUUAAGUCUGGAGGCAUUCCUGCCCUGGUGAAAAUGCUUGGUUCACCAGUGGAUUCUGUGUUGUUUUAUGCCAUUACAACUCUCCACAACCUUUUAUUACAUCAAGAAGGAGCUAAAAUG: 0.284 ratio
CGCUUCGACGGGUAUGUCAUUGAUGGUGCCACUGCUCUUUGGUGUGCAGCUGGAGCAGGACAUUUUGAAGUUGUUAAACUUCUAGUCAGCCAUGGAGCCAACGUGAACCAUACCACAGUA: 0.163 ratio
AGAAAAAUCCAUCUCUCUGAAUUAAUGCUUGAGAAAUGCCCUUUUCCUGCUGGCUCAGAUUUAGCCCAAAAAUGGCAUUUGAUUAAACAGCAUACAGCUCCUGUGAGCCCACAUUCAACA: 0.24 ratio
AUUAACAAAAGCAAACAUAGACAGAACACACUGCCACGCCUAGGAAGAGAAGAUCAUCAAAUGAAUUUUCAUGGUUUUUAAUGUCUGAAUUCACAUCAUACUCGACUUUUUGGUUUUGUU: 0.414 ratio
GUUCAACGUCCUCGAUGUUUUUUUGACAUUGCCAUUAACAAUCAACCUGCUGGAAGAGUUGUCUUUGAAUUAUUUUCUGAUGUGUGCCCCAAAACAUGCGAGAACUUUCGUUGUCUUUGU: 0.188 ratio

Set 2 — method: protein binding microarray; molecule type: double-stranded DNA, one strand shown; matrix: in vitro; concentration: not given; reference: not given; reading: higher = stronger binding; quantity: E-score
Target: Histone acetyltransferase KAT6A, both winged helices, GST fusion (KAT6A, Homo sapiens, UniProt Q92794, residues 1-181)
Notes: 8-mer, flanks averaged, mean of 2 arrays, mostly near background
Construct (chain): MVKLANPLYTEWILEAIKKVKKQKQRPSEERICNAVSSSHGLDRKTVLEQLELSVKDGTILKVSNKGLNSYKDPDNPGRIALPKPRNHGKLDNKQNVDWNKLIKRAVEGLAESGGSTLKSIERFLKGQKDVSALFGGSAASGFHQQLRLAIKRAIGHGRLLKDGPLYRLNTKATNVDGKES
AATGATGA: -0.0712
CGTGTGGA: -0.0487
ACTCTTTG: -0.115
GACGCGCC: 0.297
ACCACGAC: -0.129
ACAAAAGA: -0.0296
AACCCGAC: 0.245
CAGAATTA: 0.0514
ACTGTCAC: -0.0773
AGTAGCTA: -0.157
GCCTGCAA: -0.128
AGCAATAA: -0.251
CCCATCGC: 0.106
AATGATAG: 0.0991
GACGATTA: 0.0711
GGGCTAGA: -0.03
AAGTGGGC: -0.043
AATTTAGC: -0.0825

Set 3 — method: protein-binding microarray; molecule type: double-stranded DNA, one strand shown; matrix: in vitro; concentration: 250 nM; notes: 60-bp whole probe; together with: salmon DNA 0.4 mg/ml; reference: random background probes; reading: higher = stronger binding; quantity: log fluorescence; constant ends, left off below: GCCTAGCAC … GTCTTGATTCGCTTGACGCTGCTG
Target: Interferon regulatory factor 5, full length, phosphomimetic (IRF5, Homo sapiens, UniProt Q13568-2, residues 1-514, K96S/S451D/S453D/S456D/S462D)
TTAGGTTTCCGGTATCGGTTAGTGCTA: 5.75 z-score
TTAGATCTCCGTCTCGATTAGTGCTAG: 0.37 z-score
TTAGTTATCGGGTATCGGTTAGTGCTA: 6.32 z-score
TCACTTTTATTTTCAGTACTGTGCTAG: 3.52 z-score
TTAAGTTCCCTTTTCCTTTAGTGCTAG: 0.952 z-score
TTACGTATCCTTTTCCTTTAGTGCTAG: 1.58 z-score
GACGGTATCATACTGCTGACGTGCTAG: 0.315 z-score
TTAGGAATCGACTATCGGTTAGTGCTA: 7.58 z-score
TCAGTTTTGAGCTCTGTCTGGGTGCTA: 0.476 z-score
TTAGGACTGGACACTGCGTTAGTGCTA: -0.673 z-score
GACAACTGATATCAAAGGGAGTGCTAG: 0.483 z-score
GGGTGTGTGAGTGTGTGTGCGTGCTAG: -0.743 z-score
GACGATATCAGTCTCTAGACGTGCTAG: 1.16 z-score

Other studies, line by line
HNRNPU (Homo sapiens, UniProt Q00839) — cross-linked residues (AGO3 (Homo sapiens, UniProt Q9H9G7); cross-linking MS; cell fractions; together with: DSSO): K352 to T472
PhoQ, residues 284 288 289 292 302 303 ALVSVA — fold induction (PhoP, residues 12 14 15 18 19 QWHVF (Escherichia coli, UniProt P23836); Sort-seq, item: YFP reporter; E. coli; PhoQ-PhoP variant library, together with: 10 µM Mg2+; reference: high Mg2+ state, higher = stronger signaling): 9.72

Excerpt of the above (set 1):
AGAAAAAUCCAUCUCUCUGAAUUAAUGCUUGAGAAAUGCCCUUUUCCUGCUGGCUCAGAUUUAGCCCAAAAAUGGCAUUUGAUUAAACAGCAUACAGCUCCUGUGAGCCCACAUUCAACA: 0.24 ratio
UACCUGCUGCUGCAGACCUACGUGCUCCGCCUAGAAGCUAUCAUGAACAGUAUCUUGCUCUUCUUUUGUGGCUCAGAGCUGCUGCUUGAGAUGCUCACGCUGGCCACCUUCUCCAGCAUG: 1.56 ratio
UUUAAGUCUGGAGGCAUUCCUGCCCUGGUGAAAAUGCUUGGUUCACCAGUGGAUUCUGUGUUGUUUUAUGCCAUUACAACUCUCCACAACCUUUUAUUACAUCAAGAAGGAGCUAAAAUG: 0.284 ratio
GUUCAACGUCCUCGAUGUUUUUUUGACAUUGCCAUUAACAAUCAACCUGCUGGAAGAGUUGUCUUUGAAUUAUUUUCUGAUGUGUGCCCCAAAACAUGCGAGAACUUUCGUUGUCUUUGU: 0.188 ratio
CGCUUCGACGGGUAUGUCAUUGAUGGUGCCACUGCUCUUUGGUGUGCAGCUGGAGCAGGACAUUUUGAAGUUGUUAAACUUCUAGUCAGCCAUGGAGCCAACGUGAACCAUACCACAGUA: 0.163 ratio
